Experimental data collected from several papers.
A part holds a random share of what one study measured.

Study 1
Target: RNA binding protein fox-1 homolog 2, RRM domain, GST-SBP tag (RBFOX2, Homo sapiens, UniProt O43251-10, residues 100-194)
Technique: RNA Bind-n-Seq
Form: RNA
Sample: in vitro
Concentration: 365 nM
Setting: natural RNA segment, single round, ends assumed
Relative to: no-protein control
Reading: higher = stronger binding
All sequences stand within: GGGAGUUCUACAGUCCGACGAUC … UGGAAUUCUCGGGUGCCAA
Target sequence (chain): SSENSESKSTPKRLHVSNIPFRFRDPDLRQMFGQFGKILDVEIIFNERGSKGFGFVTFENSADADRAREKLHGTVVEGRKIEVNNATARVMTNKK
Strand | RBNS enrichment (R)
CAGCACUCUAAUGCACAGCUGCUGACAAUAAAAGCCCCAACUCUUAACGGAGAUCAGUGGGAGUUACAGGCAUCUCAGUUAUCAAGGAAUUGAACUCCUUGAGAGAUAGU | 0.541
GCAUCUCCAUGCCCCUAUAAAGCGUGCCUGGGGCUUGUCUGGGGCUGGGGAGGAAUAAACCAUGUAUAUAAAAGAGUUUCAGGCUGAGCCUGCUUCUGUUCGGUUGUCUG | 1.53
CUUUAAAAGGGCGACAACUGACUCACGAGAUGGCAACCACCUGGAGCCUGUUUGGGGAGACCACCCUGUACCCGUGACUUUCGUUUUUAAUAAUAAUAAUAAUAAUAAUA | 0.394
CCCUUGCAGUGAUGUCCGUUUGUCCAGAUUCUGCCAGUCAUCACUGGACACGUCUCCUCGCAGCUGCCCUAGCAAGGGGAGACAUUGUGGUAGCUAUCAGACAUGGACAG | 0.259
AGCACAAGCCUAAAGCAAGGUCAAGCAGAUGGCAAAACCGAAUUUGCCUGCAAAGAAAUCUAUUUAACUGAAUCAGCCCAUAAUAUUUGAGGCACGAGGUUACUGUGAUU | 0.27
CCAAGCUGCUUGUCCUGGGCCUGCCCCUGUGUAUUCACCACCAAUAAAUCAGACCAUGAAACCAGUGUGGGUUGGGCUGGGAGAAGGGCAGUGACAUUCAAAGCCAGGGU | 0.393
UUAGAUGACUUAAGUUAGCUAUAGGUUCAAGACCUGGACUAAAGUAUUACUUGGAAAUUCUGAGUAUUGCUAAAAAGGAGGAUGAAAGGGACCUAGAAGUUGAGUUAUUA | 0.41
ACCAGUGAGAGCCCCAAUCCCUGCAGUUUUGUGGCUUCAAGUGUGGGUGGACAGUCCUAAUGGGGAUCUCCAGCUCCUUCCUGUGGGCUGCCACAGACAGCUACCCCCAG | 0.321
AUUAUUUUGUGCAGUUAAUCAAAUUUGCCAAAGUCUUUAUCUGCCCCUUUAACAAGUUGAGUAAAAAUAAAAGGUAUUUUUUAGUCAAUGUGUUCCAUGAUUUUGCUUAA | 0.519
UUAUGGGUUGGCUUGGUUUGGUUUUUCUUAGCACCACCUGGGAUCACAGAGGCUCCUAAGAUACAUGAGACCUUUGCAGUGUUUUCUCUCCACCUUCUGAGACAGAGGGA | 0.51
CCUUUCUCUACCACAGCAAACACAUUCUCCACCAUGUCAGUCUAAAGAGUCUAAAGGGGCCGGGAGAAGCAUGAGCGAGGGGCAGAUUCUAGUCGGGAGCCCAUGCCCUG | 0.646
AUGAUGUUGGGUUUAACAUCAUAUGUUCACAGUGUUUUAAAUAAGAAAUAAUCUGUCUUUAGUAUACAGAAUGGUUCUUUGUUUGCCUGAAAAGUAUAAGAAUACAAUUU | 0.756

Study 2
Target: Ras GTPase-activating protein-binding protein 1, full length (G3BP1, Homo sapiens, UniProt Q13283)
UniProt Q13283, sequence (whole entry, looked up): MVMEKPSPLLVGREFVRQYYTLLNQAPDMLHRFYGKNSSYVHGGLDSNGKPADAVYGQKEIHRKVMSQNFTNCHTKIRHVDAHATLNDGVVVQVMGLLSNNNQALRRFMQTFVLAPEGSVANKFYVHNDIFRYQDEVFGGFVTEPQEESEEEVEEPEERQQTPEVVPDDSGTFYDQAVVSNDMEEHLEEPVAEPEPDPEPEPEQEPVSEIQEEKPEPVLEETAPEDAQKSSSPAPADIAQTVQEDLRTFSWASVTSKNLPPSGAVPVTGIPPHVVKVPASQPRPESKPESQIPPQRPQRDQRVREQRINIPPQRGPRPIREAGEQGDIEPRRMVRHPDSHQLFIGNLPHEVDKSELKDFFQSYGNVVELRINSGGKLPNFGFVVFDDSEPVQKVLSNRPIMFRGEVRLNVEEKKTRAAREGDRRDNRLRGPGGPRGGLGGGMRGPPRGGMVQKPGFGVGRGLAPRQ
Technique: RNA Bind-n-Seq
Form: RNA
Sample: in vitro
Concentration: 200 nM
Setting: whole 134-nt RNA, ends assumed
With: 150 mM KCl
Relative to: input library
Reading: higher = stronger binding
All sequences stand within: GGGAGUUCUACAGUCCGACGAUC … UGGAAUUCUCGGGUGUCAAGG
Strand | log2 enrichment
GUCCUGUGCUACACAUCGUAUGUACCGAAUCAAAUUUUUAAAUUUUUAAACCCCCAAAAAAGUAUUAUGUUACGCCGUUCGGAUCUGCAC | -0.122
UCCUCAAGUCCUGUGCUACACAUCGUAUGUACCGAAUCGGUGGUGGGGUGGGAAAGUAUUAUGUUACGCCGUUCGGAUCUGCACUUCCAG | 0.385
AAGUCCUGUGCUACACAUCGUAUGUACCGAAUCGGGAAAGGGAAAAAGGGUUUGGGAAAGUAUUAUGUUACGCCGUUCGGAUCUGCACUU | 0.109
CAAGUCCUGUGCUACACAUCGUAUGUACCGAAUCGGGAAAGGGUUUGGGUUUGGGAAAGUAUUAUGUUACGCCGUUCGGAUCUGCACUUC | 0.602
CCUGUGCUACACAUCGUAUGUACCGAAUCGGGAAAAAAAGGGAAAAAGGGUUUUUUUGGGAAAGUAUUAUGUUACGCCGUUCGGAUCUGC | -0.837
UCCUGUGCUACACAUCGUAUGUACCGAAUCGGGGCCCCCGGGCCCCCGGGGCCCCCGGGAAAGUAUUAUGUUACGCCGUUCGGAUCUGCA | -1.18
UGGGGACAAGCUGACAGCAGCCAUGGCGAGCGGCAGUGGAGACAGCGUCACCCGUCGGAGCGUGGCAUCACAGUUUUUCACUCAAGAGGA | -1.54
UUUGGCAAUGAGAUCUAAACCAGACAAAGACCUCCUUAUGGAAGAAGAUGACAUGGCCUUGGCAAAUGUAGUCAUGCAGGAAGCUCAGAA | -0.837
GUCCUGUGCUACACAUCGUAUGUACCGAAUCGGGGUUUUGGGGUUUUGGGGUUUUGGGGAAAGUAUUAUGUUACGCCGUUCGGAUCUGCA | 0.188
AAGUCCUGUGCUACACAUCGUAUGUACCGAAUCGGAAAAAGGAAAAAGGGAAAAAGGAAAGUAUUAUGUUACGCCGUUCGGAUCUGCACU | -1.09

Study 3
Target: Histone acetyltransferase KAT6A, both winged helices, GST fusion (KAT6A, Homo sapiens, UniProt Q92794, residues 1-181)
Technique: protein binding microarray
Form: double-stranded DNA, one strand shown
Sample: in vitro
Concentration: not given
Setting: 8-mer, flanks averaged, mean of 2 arrays, mostly near background
Relative to: not given
Reading: higher = stronger binding
Target sequence (chain): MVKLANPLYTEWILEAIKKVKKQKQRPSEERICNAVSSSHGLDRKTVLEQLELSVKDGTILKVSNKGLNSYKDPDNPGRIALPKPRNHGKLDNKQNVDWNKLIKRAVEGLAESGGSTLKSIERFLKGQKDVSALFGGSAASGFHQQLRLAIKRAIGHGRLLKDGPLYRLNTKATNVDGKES
Strand | E-score
AAAGGCGT | 0.0982
AGCGGGAG | 0.18
CTTGCCGA | 0.0657
AGCATGTA | -0.117
ACATTCAT | -0.122
CTCCTGGA | -0.121
GAGAGATC | -0.223
TACAAATA | 0.0156
GCGTGAGA | 0.143
ACCTGTAT | -0.193
GATGCCTA | -0.187
AATGTCCT | -0.0409
ACCCGCTC | 0.273
AACCCTGC | -0.0652
GAGGGTAA | -0.126
GGTCCAAA | -0.0846
CAACTCGA | -0.149
CCATGCTA | -0.118
AGTAAATC | -0.196
AAGTAGAT | -0.0845
AGGCAGCA | -0.227
CCAACGAG | -0.204
CCTTCCTC | -0.148

Study 4
Target: Prothrombin, mature alpha-thrombin (F2, Homo sapiens, UniProt P00734)
Technique: aptamer microarray, sandwich
Form: DNA with 2'F-ANA
Sample: in vitro
Concentration: 200 nM
Setting: whole 15-mer aptamer, many near background
With: Cy3 exosite-II aptamer, 400 nM
Reading: higher = stronger binding
Strand: GGTTGGTGTGGTTGG
Modification | mean fluorescence intensity [a.u.]
2'F-ANA at 2 5 6 8 12 14 15 | 50.2
2'F-ANA at 3 5 6 7 10 15 | 50.1
2'F-ANA at 2 5 6 7 9 15 | 76.4
2'F-ANA at 1 3 4 5 8 9 12 14 | 57.4
2'F-ANA at 2 5 6 7 9 10 12 13 | 50
2'F-ANA at 1 3 4 5 6 7 8 10 13 | 46.1
2'F-ANA at 1 5 6 14 15 | 91.7
2'F-ANA at 3 8 11 15 | 982
2'F-ANA at 1 4 6 8 12 13 | 217
2'F-ANA at 2 5 6 8 9 13 15 | 81.8
2'F-ANA at 1 2 3 5 6 7 8 11 12 13 | 84.6
2'F-ANA at 1 2 3 4 5 7 10 13 15 | 46.7
2'F-ANA at 1 2 7 10 13 14 15 | 47
2'F-ANA at 5 6 7 8 9 10 12 13 | 50.3
2'F-ANA at 4 5 7 13 14 15 | 49.6
2'F-ANA at 2 3 4 6 11 13 14 | 230
2'F-ANA at 1 2 3 7 8 10 11 12 14 | 54.9

Excerpt of the above (study 4):
Modification | mean fluorescence intensity [a.u.]
2'F-ANA at 2 5 6 8 9 13 15 | 81.8
2'F-ANA at 1 2 3 5 6 7 8 11 12 13 | 84.6
2'F-ANA at 1 2 3 4 5 7 10 13 15 | 46.7
2'F-ANA at 1 2 7 10 13 14 15 | 47
